Assay results gathered from unrelated publications.
Protocols differ between the studies behind these lines. “And” joins repeats or separate records; there may be more than shown.

| Compound | test | test system | conditions | endpoint | value |
| --- | --- | --- | --- | --- | --- |
| CC[C@H](C)[C@H](NC(=O)[C@H](Cc1ccccc1)NC(=O)[C@H](CCC(=O)O)NC(=O)[C@H](CCCCN)NC(=O)[C@H](C)NC(=O)[C@H](C)NC(=O)[C@H](CCC(N)=O)NC(=O)CNC(=O)[C@H](CCC(=O)O)NC(=O)[C@H](CC(C)C)NC(=O)[C@H](Cc1ccc(O)cc1)NC(=O)[C@H](CO)NC(=O)[C@H](CO)NC(=O)[C@@H](NC(=O)[C@H](CC(=O)O)NC(=O)[C@H](CO)NC(=O)[C@@H](NC(=O)[C@H](Cc1ccccc1)NC(=O)[C@@H](NC(=O)CNC(=O)[C@H](CCC(=O)O)NC(=O)C(C)(C)NC(=O)N(N)Cc1c[nH]cn1)[C@@H](C)O)[C@@H](C)O)C(C)C)C(=O)N[C@@H](C)C(=O)N[C@@H](Cc1c[nH]c2ccccc12)C(=O)N[C@@H](CC(C)C)C(=O)N[C@H](C(=O)N[C@@H](CCCNC(=N)N)C(=O)NCC(=O)N[C@@H](CCCNC(=N)N)C(=O)NCC(=O)O)C(C)C | HPLC-UV | Tris-HCl buffer | 0.1 mmol/l, 24 h, pH 7.4, 37 °C | remaining peptide | > 96% |
| C#Cc1c(F)ccc2cc(O)cc(-c3ncc4c(N5CC6CCC(C5)N6C(=O)OC(C)OC(=O)C(C)(C)C)nc(OC[C@@]56CCCN5C[C@H](F)C6)nc4c3F)c12 (stereo partly drawn) |  | simulated gastric fluid | 1 µM, 30 min, 37 °C | remaining prodrug | 88.3% |
| CC[C@H](C)[C@H](NC(=O)[C@@H](NC(=O)[C@@H](NC(=O)[C@@H](NC(=O)[C@@H](N)CCCCN)C(C)C)C(C)C)C(C)C)C(=O)N[C@H](C(N)=O)[C@@H](C)O | LC-MS | pronase digest | 200 µM, 1 h, pH 7.5, 37 °C, together with: pronase 2.5 µg/mL | remaining intact peptide | 83% |
| C#Cc1c(F)ccc2cc(O)cc(-c3ncc4c(N5CC6CCC(C5)N6C(=O)OC(C)OC(=O)CCCCC)nc(OC[C@@]56CCCN5C[C@H](F)C6)nc4c3F)c12 (stereo partly drawn) |  | simulated gastric fluid | 1 µM, 30 min, 37 °C | remaining prodrug | 110% |
| C=CCN1CCC23c4c5ccc(OC(=O)c6ccccc6)c4OC2C(=O)CCC3(O)C1C5 (stereo not drawn) |  | rat plasma | 1 h, together with: digitonin 100 µM | remaining compound | 0% |
| Cc1cc(-c2ccc3ccccc3c2)nnc1NCCN1CCN(C)CC1 |  | rat liver microsomes | 10 min | remaining compound | 88% |
| C=CCN1CCC23c4c5ccc(OC(=O)c6ccc(N)cc6)c4OC2C(=O)CCC3(O)C1C5 (stereo not drawn) |  | rat plasma | 0 h, together with: loperamide 100 µM | remaining compound | 103% and 99% and 98.2% |
| Cc1nnc(-c2ccc(CC(=O)NCCCC[C@H](NC(=O)c3ccc(OCc4ccc(B(O)O)cc4)c(-c4nc5ccccc5c(=O)[nH]4)c3)C(=O)NCC(=O)NCC(=O)NCC(=O)N[C@@H](Cc3ccccc3)C(=O)N[C@@H](Cc3ccccc3)C(=O)O)cc2)nn1 | UPLC-MS/MS | human serum | 100 µM, 0.5 h, 37 °C | remaining compound | 97.2% |
| C[C@H](NC(=O)CNC(=O)[C@@H]1CCCN1C(=O)[C@H](CO)NC(=O)CNC(=O)[C@H](CO)NC(=O)[C@H](C)NC(=O)[C@H](CC(N)=O)NC(=O)[C@H](C)NC(=O)[C@H](CO)NC(=O)[C@H](C)NC(=O)[C@H](CO)NC(=O)[C@@H]1CCCN1C(=O)[C@H](Cc1ccccc1)NC(=O)[C@H](C)NC(=O)[C@H](CO)NC(=O)[C@@H]1CCCN1C(=O)[C@H](Cc1ccccc1)NC(=O)[C@@H](NC(=O)[C@H](CC(=O)O)NC(=O)[C@@H](N)CO)[C@@H](C)O)C(=O)N[C@@H](CCCNC(=N)N)C(=O)N[C@@H](CO)C(=O)O |  | 50% mouse plasma | 20 min | remaining peptide | 1.03% |

Excerpt of the above:
| Compound | test | test system | conditions | endpoint | value |
| --- | --- | --- | --- | --- | --- |
| C=CCN1CCC23c4c5ccc(OC(=O)c6ccc(N)cc6)c4OC2C(=O)CCC3(O)C1C5 (stereo not drawn) |  | rat plasma | 0 h, together with: loperamide 100 µM | remaining compound | 103% and 99% and 98.2% |
